{"data": "Results collected from several papers", "CA2": "Carbonic anhydrase 2 (CA2, Homo sapiens, UniProt P00918)", "Chymotrypsin-C": "Chymotrypsin-C (Homo sapiens, UniProt Q99895)", "note": "Lines come from different studies, so protocols differ. Numbers after ± are the reported error.", "chain of UniProt Q99895 (whole entry, looked up)": "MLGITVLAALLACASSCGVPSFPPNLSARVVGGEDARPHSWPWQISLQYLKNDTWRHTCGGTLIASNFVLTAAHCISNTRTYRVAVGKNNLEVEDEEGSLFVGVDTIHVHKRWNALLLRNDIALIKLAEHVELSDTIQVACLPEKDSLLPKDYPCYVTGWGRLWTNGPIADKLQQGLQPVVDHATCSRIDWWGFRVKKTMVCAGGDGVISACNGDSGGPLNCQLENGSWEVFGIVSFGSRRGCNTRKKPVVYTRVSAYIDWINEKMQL", "chain of UniProt P41143 (whole entry, unmodified, looked up)": "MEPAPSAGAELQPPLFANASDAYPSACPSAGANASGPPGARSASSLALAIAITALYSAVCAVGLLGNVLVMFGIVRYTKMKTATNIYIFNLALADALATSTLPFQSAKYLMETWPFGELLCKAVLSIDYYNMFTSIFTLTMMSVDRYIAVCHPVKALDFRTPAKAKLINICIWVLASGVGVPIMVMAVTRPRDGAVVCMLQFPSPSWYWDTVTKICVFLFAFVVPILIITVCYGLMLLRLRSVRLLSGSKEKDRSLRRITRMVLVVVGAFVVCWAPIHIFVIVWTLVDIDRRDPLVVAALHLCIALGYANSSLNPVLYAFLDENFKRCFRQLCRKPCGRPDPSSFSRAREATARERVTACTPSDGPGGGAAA", "chain of UniProt Q13547 (whole entry, looked up)": "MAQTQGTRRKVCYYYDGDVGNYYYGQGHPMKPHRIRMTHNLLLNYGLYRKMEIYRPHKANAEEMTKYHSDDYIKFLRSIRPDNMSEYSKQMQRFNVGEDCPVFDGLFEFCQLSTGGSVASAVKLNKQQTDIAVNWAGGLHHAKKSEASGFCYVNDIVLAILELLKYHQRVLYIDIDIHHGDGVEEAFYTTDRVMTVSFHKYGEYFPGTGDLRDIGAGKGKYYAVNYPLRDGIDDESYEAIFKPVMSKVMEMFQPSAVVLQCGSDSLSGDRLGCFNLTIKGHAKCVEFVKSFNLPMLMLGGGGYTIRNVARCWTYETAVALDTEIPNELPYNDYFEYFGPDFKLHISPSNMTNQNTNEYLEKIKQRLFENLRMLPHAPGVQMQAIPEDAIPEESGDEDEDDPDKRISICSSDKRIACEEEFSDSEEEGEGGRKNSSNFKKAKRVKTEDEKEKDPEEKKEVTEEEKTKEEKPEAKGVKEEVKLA", "chain of UniProt Q62666 (whole entry, looked up)": "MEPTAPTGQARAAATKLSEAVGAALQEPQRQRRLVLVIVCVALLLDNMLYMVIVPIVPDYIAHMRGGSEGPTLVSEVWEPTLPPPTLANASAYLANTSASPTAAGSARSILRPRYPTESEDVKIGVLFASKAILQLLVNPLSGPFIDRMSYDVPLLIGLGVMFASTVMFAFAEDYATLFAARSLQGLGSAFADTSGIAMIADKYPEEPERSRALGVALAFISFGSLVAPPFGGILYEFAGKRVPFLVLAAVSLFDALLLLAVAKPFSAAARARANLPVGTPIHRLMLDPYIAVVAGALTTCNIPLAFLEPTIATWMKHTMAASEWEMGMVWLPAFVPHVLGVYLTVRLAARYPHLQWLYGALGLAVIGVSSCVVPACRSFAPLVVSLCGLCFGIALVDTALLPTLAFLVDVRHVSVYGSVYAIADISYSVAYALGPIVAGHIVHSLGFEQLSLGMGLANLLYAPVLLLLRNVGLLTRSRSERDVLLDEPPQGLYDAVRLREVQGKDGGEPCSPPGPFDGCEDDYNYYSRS", "chain of UniProt P28335 (whole entry, looked up)": "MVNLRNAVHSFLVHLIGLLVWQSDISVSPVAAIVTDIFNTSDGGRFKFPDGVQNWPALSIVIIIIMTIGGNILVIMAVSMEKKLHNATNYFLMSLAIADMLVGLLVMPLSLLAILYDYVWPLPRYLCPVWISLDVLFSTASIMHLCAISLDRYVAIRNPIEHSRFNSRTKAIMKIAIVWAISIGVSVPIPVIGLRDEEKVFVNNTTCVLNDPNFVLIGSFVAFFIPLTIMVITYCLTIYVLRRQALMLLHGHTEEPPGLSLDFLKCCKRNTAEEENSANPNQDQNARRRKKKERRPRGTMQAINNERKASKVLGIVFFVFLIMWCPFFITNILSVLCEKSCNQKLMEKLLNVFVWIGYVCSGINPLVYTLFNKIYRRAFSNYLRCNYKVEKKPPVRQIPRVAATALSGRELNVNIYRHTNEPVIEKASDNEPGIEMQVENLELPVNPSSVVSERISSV", "chain of UniProt O43570 (whole entry, looked up)": "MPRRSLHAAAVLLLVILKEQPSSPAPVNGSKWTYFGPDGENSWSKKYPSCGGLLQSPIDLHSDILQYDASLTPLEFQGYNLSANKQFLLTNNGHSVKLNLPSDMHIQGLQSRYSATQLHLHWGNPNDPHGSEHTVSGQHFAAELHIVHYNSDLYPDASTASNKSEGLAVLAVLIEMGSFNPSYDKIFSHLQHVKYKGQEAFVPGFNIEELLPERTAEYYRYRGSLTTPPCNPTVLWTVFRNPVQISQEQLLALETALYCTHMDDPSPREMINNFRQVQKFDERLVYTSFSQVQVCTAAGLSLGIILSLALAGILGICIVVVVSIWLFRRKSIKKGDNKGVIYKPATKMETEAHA", "chain of UniProt P18089 (whole entry, looked up)": "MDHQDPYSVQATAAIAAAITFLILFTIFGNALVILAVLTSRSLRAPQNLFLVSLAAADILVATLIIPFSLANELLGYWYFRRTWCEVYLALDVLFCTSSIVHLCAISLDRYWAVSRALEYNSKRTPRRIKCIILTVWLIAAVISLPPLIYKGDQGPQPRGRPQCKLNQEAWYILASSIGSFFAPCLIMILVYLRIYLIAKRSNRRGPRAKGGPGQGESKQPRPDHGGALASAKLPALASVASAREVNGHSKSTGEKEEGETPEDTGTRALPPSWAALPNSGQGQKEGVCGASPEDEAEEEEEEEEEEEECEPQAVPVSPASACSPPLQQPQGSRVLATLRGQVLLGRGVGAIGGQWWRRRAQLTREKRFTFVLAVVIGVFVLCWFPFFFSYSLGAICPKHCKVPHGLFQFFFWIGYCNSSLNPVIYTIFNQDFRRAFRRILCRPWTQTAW"}
{"SMILES": "N[C@H]1CCOC1=O", "tested on": "CA2", "test": "CO2 hydration activity, inhibitor, stopped-flow CO2 hydration", "setting": "room temperature preincubation", "endpoint": "Ki", "result": "> 100 µM"}
{"SMILES": "O=C1c2ccccc2CCCN1CCCCN1CCN(c2cccc(Cl)c2Cl)CC1", "tested on": "HTR2C (Homo sapiens, UniProt P28335)", "test": "ligand displacement, radioligand", "endpoint": "Ki", "result": "0.317 µM"}
{"SMILES": "Cc1cc(=O)oc2cc(OCCCCCC[Se]C#N)ccc12", "tested on": "CA12 (Homo sapiens, UniProt O43570)", "test": "enzyme activity, inhibitor, stopped-flow", "endpoint": "Ki", "result": "0.0776 µM"}
{"SMILES": "O=S(=O)(N/N=C/c1ccc(OS(=O)(=O)c2cc(Cl)ccc2Cl)cc1)c1cc(Cl)ccc1Cl", "tested on": "CA2", "test": "enzyme activity, inhibitor, absorbance", "endpoint": "Ki", "result": "0.0185 µM"}
{"SMILES": "Cc1cc(O)cc(C)c1C[C@H](N)C(=O)N[C@H](CCCNC(=N)N)C(=O)N[C@@H](Cc1ccccc1)C(=O)N(C)CC(=O)N(C)Cc1cc(C(F)(F)F)cc(C(F)(F)F)c1", "tested on": "OPRD1 (Homo sapiens, UniProt P41143, D210N)", "endpoint": "Ki", "result": "0.0909 µM"}
{"SMILES": "O=S(=O)(N/N=C/c1ccc(OS(=O)(=O)c2ccc(Cl)cc2)cc1)c1cc(Cl)ccc1Cl", "tested on": "CA2", "test": "enzyme activity, inhibitor, absorbance", "endpoint": "Ki", "result": "0.0637 µM"}
{"SMILES": "N[C@H]1CCSC1=O", "tested on": "CA2", "test": "CO2 hydration activity, inhibitor, stopped-flow CO2 hydration", "setting": "room temperature preincubation", "endpoint": "Ki", "result": "> 100 µM"}
{"SMILES": "COc1cc2c(cc1O)C(CCc1ccc(Cl)cc1)N(C)CC2 (stereo not shown)", "tested on": "Glutamate NMDA receptor; Grin1/Grin2b (Grin1/Grin2b, Rattus norvegicus, UniProt P35439+Q00960)", "test": "ligand displacement, radioligand", "endpoint": "Ki", "result": "0.017 µM"}
{"SMILES": "OC1Cc2ccccc2CC1N1CCC2(C=Cc3cc(Br)ccc32)CC1 (racemic)", "tested on": "Vesicular acetylcholine transporter (Rattus norvegicus, UniProt Q62666)", "test": "binding, radioligand displacement", "system": "PC12 expressing VAChT", "setting": "with: [3H]vesamicol", "endpoint": "Ki", "result": "0.014 ± 0.001 µM"}
{"SMILES": "CCCCCCCCCCCCCCN(O)C(=O)CCCCC[C@@H]1NC(=O)[C@H]2CCCN2C(=O)[C@H](Cc2ccccc2)NC(=O)[C@H](Cc2ccccc2)NC1=O", "tested on": "HDAC1 (Homo sapiens, UniProt Q13547)", "test": "enzyme activity, inhibitor, fluorescence", "endpoint": "Ki", "result": "0.018 µM"}
{"SMILES": "CSCC[C@@H]1NC(=O)[C@H](C)NC(=O)[C@H](CO)NC(=O)[C@H](CCCCN)NC(=O)CNC(=O)[C@H](CC(=O)O)NC(=O)[C@H](CO)NC(=O)CNC(=O)[C@@H]2CSSC[C@H](NC(=O)[C@@H](NC(=O)[C@@H](NC(=O)[C@H](CCC(=O)O)NC(=O)[C@H](CO)NC(=O)CN)C(C)C)[C@@H](C)O)C(=O)N[C@@H](CCC(=O)O)C(=O)N3CCC[C@H]3C(=O)NCC(=O)N[C@@H]([C@@H](C)O)C(=O)N[C@@H]([C@@H](C)O)C(=O)N[C@@H](Cc3ccccc3)C(=O)N[C@@H](CCCCN)C(=O)N[C@@H](CC(=O)O)C(=O)N[C@@H](CCCCN)C(=O)N[C@H]3CSSC[C@@H](C(=O)N[C@@H](Cc4c[nH]c5ccccc45)C(=O)N[C@@H](CCC(N)=O)C(=O)O)NC(=O)[C@H](CC(C)C)NC(=O)[C@H](CCSC)NC(=O)[C@H](CC(C)C)NC(=O)[C@H](CO)NC(=O)[C@H](CSSC[C@H](NC(=O)[C@H]([C@@H](C)O)NC(=O)[C@H](CC(N)=O)NC3=O)C(=O)N[C@@H](CCCNC(=N)N)C(=O)N2)NC1=O", "tested on": "Chymotrypsin-C", "test": "enzyme activity, inhibitor", "endpoint": "Ki", "result": "0.00016 ± 2e-05 µM"}
{"SMILES": "O=S(=O)(N/N=C/c1ccc(OS(=O)(=O)c2cc(Cl)ccc2Cl)cc1)c1ccc(Cl)cc1", "tested on": "CA2", "test": "enzyme activity, inhibitor, absorbance", "endpoint": "Ki", "result": "0.0898 µM"}
{"SMILES": "CSCC[C@@H]1NC(=O)[C@H](CC(C)C)NC(=O)[C@H]([C@@H](C)O)NC(=O)[C@@H]2CSSC[C@@H]3NC(=O)[C@H]([C@@H](C)O)NC(=O)[C@H](CC(N)=O)NC(=O)[C@H](CSSC[C@@H](C(=O)N[C@@H](CC(=O)O)C(=O)N[C@@H](CCC(N)=O)C(=O)O)NC(=O)[C@H](CC(C)C)NC1=O)NC(=O)[C@H](CCCCN)NC(=O)[C@H](CC(=O)O)NC(=O)[C@H](CCCCN)NC(=O)[C@H](Cc1ccccc1)NC(=O)[C@H]([C@@H](C)O)NC(=O)[C@H]([C@@H](C)O)NC(=O)CNC(=O)[C@@H]1CCCN1C(=O)[C@H](CCC(=O)O)NC(=O)[C@@H](NC(=O)[C@@H](NC(=O)[C@@H](NC(=O)[C@H](CCC(=O)O)NC(=O)[C@H](CO)NC(=O)CN)C(C)C)[C@@H](C)O)CSSC[C@H](NC(=O)[C@H](CCCNC(=N)N)NC3=O)C(=O)NCC(=O)N[C@@H](CO)C(=O)N[C@@H](CC(=O)O)C(=O)NCC(=O)N[C@@H](CCCCN)C(=O)N[C@@H](CO)C(=O)N[C@@H](C)C(=O)N[C@@H](Cc1ccc(O)cc1)C(=O)N2", "tested on": "Chymotrypsin-C", "test": "enzyme activity, inhibitor", "endpoint": "Ki", "result": "0.00026 ± 3e-05 µM"}
{"SMILES": "O=C1NC2(CC2)COc2ncc(F)cc2[C@H]2COCCN2c2ccn3ncc1c3n2", "system": "Sprague-Dawley rat, male, blood", "setting": "oral, 2.5 mg/kg/day, 4 weeks, end of treatment, subacute toxicity", "endpoint": "mean corpuscular volume", "result": "63.8 ± 3.5 fL"}
{"SMILES": "CSCC[C@@H]1NC(=O)[C@H](CC(C)C)NC(=O)[C@H](Cc2c[nH]c3ccccc23)NC(=O)[C@@H]2CSSC[C@@H]3NC(=O)[C@H]([C@@H](C)O)NC(=O)[C@H](CC(N)=O)NC(=O)[C@H](CSSC[C@@H](C(=O)N[C@@H](CC(=O)O)C(=O)N[C@@H](CCC(N)=O)C(=O)O)NC(=O)[C@H](CC(C)C)NC1=O)NC(=O)[C@H](CCCCN)NC(=O)[C@H](CC(=O)O)NC(=O)[C@H](CCCCN)NC(=O)[C@H](Cc1ccccc1)NC(=O)[C@H]([C@@H](C)O)NC(=O)[C@H]([C@@H](C)O)NC(=O)CNC(=O)[C@@H]1CCCN1C(=O)[C@H](CCC(=O)O)NC(=O)[C@@H](NC(=O)[C@@H](NC(=O)[C@@H](NC(=O)[C@H](CCC(=O)O)NC(=O)[C@H](CO)NC(=O)CN)C(C)C)[C@@H](C)O)CSSC[C@H](NC(=O)[C@H](CCCNC(=N)N)NC3=O)C(=O)NCC(=O)N[C@@H](CO)C(=O)N[C@@H](CC(=O)O)C(=O)NCC(=O)N[C@@H](CCCCN)C(=O)N[C@@H](CO)C(=O)N[C@@H](C)C(=O)N[C@@H](C)C(=O)N2", "tested on": "Chymotrypsin-C", "test": "enzyme activity, inhibitor", "endpoint": "Ki", "result": "0.0139 ± 0.00289 µM"}
{"SMILES": "C[C@@H](Cc1ccsc1)NC(=O)NC[C@H](Cc1ccc(O)cc1)N(C)C", "tested on": "ADRA2B (Homo sapiens, UniProt P18089)", "test": "cell-free assay", "endpoint": "Ki", "result": "7.6 µM"}
